{"data": "Measured values collected from several papers", "note": "± marks the error that the study gave."}
{"Substance": "COc1cccc2c1C(=O)c1c(O)c3c(c(O)c1C2=O)C[C@@](O)(C(=O)CO)C[C@@H]3O[C@H]1C[C@H](NC(=O)[C@H](CC(C)C)NC(=O)[C@H](C)NC(=O)[C@H](CC(C)C)NC(=O)CCNC(=O)CCC(=O)O)[C@H](O)[C@H](C)O1", "test system": "mouse, E0771 tumour-bearing, liver", "setting": "intravenous, 92 µmol/kg", "quantity": "AUC", "result": "48 µM·h"}
{"Substance": "CNC(C)Cc1ccc2c(c1)OCO2 (racemic)", "assay": "visual analog scale, refers to: Loving", "test system": "human", "setting": "oral, 0.75 mg/kg, mean over session, unit not given", "scale": "relative to: pre-dose baseline", "quantity": "mood rating", "result": 4.7}
{"Substance": "[123I]c1cncc(OC[C@@H]2CCN2)c1", "assay": "SPECT", "test system": "human, thalamus", "setting": "intravenous bolus, 7.35 mCi", "scale": "relative to: plasma", "quantity": "tissue/plasma ratio", "result": 60.9}
{"Substance": "METAVAYYKDGVPYDDKGQVIITLLNGTPDGSGSGGGGGK (colicin E1 fragment 1–40; sequence looked up)", "assay": "far-UV CD", "test system": "peptide, 50 mM sodium phosphate", "quantity": "helical content", "result": "0%"}
{"Substance": "COc1cccc2c1C(=O)c1c(O)c3c(c(O)c1C2=O)C[C@@](O)(C(=O)CO)C[C@@H]3O[C@H]1C[C@H](NC(=O)[C@@H]2CCCN2C(=O)CNC(=O)[C@H](CC(C)C)NC(=O)[C@H](C)NC(=O)CP(=O)(O)O)[C@H](O)[C@H](C)O1", "test system": "mouse, E0771 tumour-bearing, tumor", "setting": "intravenous, 92 µmol/kg", "quantity": "AUC", "result": "16.9 µM·h"}
{"Substance": "CSCC[C@H](NC(=O)[C@H](CC(C)C)NC(=O)[C@H](Cc1c[nH]cn1)NC(=O)CNC(=O)[C@@H](NC(=O)[C@H](C)NC(=O)[C@H](Cc1c[nH]c2ccccc12)NC(=O)[C@H](CCC(N)=O)NC(=O)CCC(=O)NCCOCCOCCNC(=O)CN1CCN(CC(=O)O)CCN(CC(=O)O)CCN(CC(=O)O)CC1)C(C)C)C(N)=O", "test system": "ICR SCID mouse (PC-3 tumour), urine and bladder contents", "setting": "intravenous, 185 kBq, 1 h", "quantity": "excreted dose", "result": "80.67 ± 0.74%"}
{"Substance": "C[C@H]1CNCCc2ccc(Cl)cc21", "test system": "male Sprague-Dawley rat, plasma", "setting": "subcutaneous, 0.5 mg/kg, single dose", "quantity": "Tmax", "result": "17.4 min"}
{"Substance": "melittin", "assay": "circular dichroism", "test system": "lipid membrane", "setting": "25 °C", "quantity": "helical residues", "result": "18 to 19 amino acids"}
{"Substance": "Cc1ccccc1NC(=O)Nc1ccc(CC(=O)N[C@@H](CCCCNC(=O)/C=C/c2cccnc2)C(=O)N[C@@H](CCCC(=O)O)C(=O)NC2(C(=O)NCCOCCOCCOCCOCC(=O)N[C@@H](CCCCNC(=S)Nc3ccc(C[C@H]4CN(CC(=O)O)CCN(CC(=O)O)CCN4CC(=O)O)cc3)C(N)=O)CCCCC2)cc1 [fluorine-18 labelled]", "test system": "female C57BL/6 mice, B16-F10 tumour, tumour and blood", "setting": "intravenous, 1 h", "scale": "relative to: tumour over blood", "quantity": "tumour-to-blood ratio", "result": "2.5 ± 0.4"}
{"Substance": "CC(=O)N(O)CCCCCNC(=O)CCC(=O)N(O)CCCCCNC(=O)CCC(=O)N(O)CCCCCNC(=S)Nc1ccc(NC(=S)NCCOCCOCCOCCOCCC(=O)N[C@@H](CCC(=O)NCCOCCOCCOCCOCCC(=O)NCCCC[C@@H]2NC(=O)[C@@H](Cc3ccccc3)NC(=O)[C@H](CC(=O)O)NC(=O)CNC(=O)[C@H](CCCNC(=N)N)NC2=O)C(=O)NCCOCCOCCOCCOCCC(=O)NCCCC[C@@H]2NC(=O)[C@@H](Cc3ccccc3)NC(=O)[C@H](CC(=O)O)NC(=O)CNC(=O)[C@H](CCCNC(=N)N)NC2=O)cc1 [zirconium-89 labelled]", "test system": "athymic nude mice female tumour-bearing, tumor", "setting": "intravenous, 100 µCi, 4 h", "quantity": "tissue uptake", "result": "3.94 ± 0.38 %ID/g"}
{"Substance": "COc1ccc2c(c1OCc1ccccc1)C[C@@H](C(=O)OCC(=O)NCCCC[C@H](NC(=O)CNC(=O)[C@H](CCCNC(=N)N)NC(=O)[C@H](CO)NC(=O)CNC(=O)CNC(=O)[C@H](Cc1ccc(O)cc1)NC(=O)[C@H](Cc1ccccc1)NC(=O)[C@H](Cc1ccccc1)NC(=O)[C@@H](NC(=O)COC(=O)[C@@H]1Cc3c(ccc(OC)c3OCc3ccccc3)CN1C(=O)C(c1ccccc1)c1ccccc1)[C@@H](C)O)C(=O)N[C@@H](CCCNC(=N)N)C(=O)N[C@@H](CC(N)=O)C(=O)N[C@@H](CC(N)=O)C(=O)N[C@@H](Cc1ccccc1)C(=O)N[C@@H](CCCCNC(=O)COC(=O)[C@@H]1Cc3c(ccc(OC)c3OCc3ccccc3)CN1C(=O)C(c1ccccc1)c1ccccc1)C(=O)N[C@H](C(=O)N[C@@H](CCC(=O)O)C(=O)N[C@@H](CCC(=O)O)C(=O)N[C@@H](Cc1ccc(O)cc1)C(=O)O)[C@@H](C)O)N(C(=O)C(c1ccccc1)c1ccccc1)C2", "assay": "HPLC", "test system": "human plasma", "setting": "50 µM, 2 h, pH 7.4, 37 °C", "quantity": "remaining compound", "result": "~100%"}
{"Substance": "N=C(N)NCCC[C@@H]1NC(=O)[C@H](CCCCNC(=O)[C@H](CC(=O)O)NC(=O)[C@H](CC(=O)O)NC(=O)[C@H](CC(=O)O)NC(=O)CC[C@H](NC(=O)CCOCCOCCOCCOCCNC(=O)c2ccc(NN)nc2)C(=O)N[C@@H](CC(=O)O)C(=O)N[C@@H](CC(=O)O)C(=O)N[C@@H](CC(=O)O)C(=O)NCCCC[C@@H]2NC(=O)[C@@H](Cc3ccccc3)NC(=O)[C@H](CC(=O)O)NC(=O)CNC(=O)[C@H](CCCNC(=N)N)NC2=O)NC(=O)[C@@H](Cc2ccccc2)NC(=O)[C@H](CC(=O)O)NC(=O)CNC1=O [technetium-99m labelled]", "assay": "γ-counting", "test system": "female athymic nude mice, U-87 MG xenograft, intestine", "setting": "intravenous, 0.5 h", "quantity": "tissue uptake", "result": "6.58 ± 0.88 %ID/g"}
{"Substance": "CC(C)C[C@@H]1NC(=O)[C@@H]2CSSC[C@@H](C(=O)NCC(N)=O)NC(=O)[C@H](Cc3ccccc3)NC(=O)CNC(=O)[C@H](CC(N)=O)NC(=O)[C@@H]3CCCN3C(=O)CNC(=O)[C@@H]3CSSC[C@H](NC(=O)[C@H]([C@@H](C)O)NC(=O)[C@H](CC(C)C)NC(=O)[C@@H]4CCCN4C(=O)[C@@H]4CCCN4C(=O)[C@H](CC(N)=O)NC(=O)[C@H](CC(=O)O)NC(=O)CNC(=O)[C@H](CCCNC(=N)N)NC(=O)[C@@H]4CCCN4C(=O)[C@H](CCCNC(=N)N)NC(=O)[C@@H]4CCCN4C(=O)[C@@H](NC(=O)CNC(=O)CN4CCN(CC(=O)O)CCN(CC(=O)O)CCN(CC(=O)O)CC4)CSSC[C@H](NC(=O)CNC(=O)[C@H](C)NC1=O)C(=O)N[C@@H](C(C)C)C(=O)N3)C(=O)N[C@@H](CO)C(=O)N[C@@H](CCC(N)=O)C(=O)N[C@@H](CC(=O)O)C(=O)N[C@@H](CO)C(=O)N[C@@H](CC(=O)O)C(=O)N2 [copper-64 labelled]", "assay": "64Cu microPET", "test system": "female nude mice, U-87 MG xenograft, tumour", "setting": "intravenous, 1 h", "quantity": "tissue uptake", "result": "4.56 ± 0.64 %ID/g"}
{"Substance": "CN[C@@](C)(C[18F])C(=O)O", "tested on": "MDA-MB-468 tumour model", "test system": "host not given, tumour", "setting": "15 min, tumour-bearing", "quantity": "tracer uptake", "result": "4.3 %ID/g"}
{"Substance": "CCN1C(=CC=CC=CC2=[N+](CCCCCC(=O)NCCCC[C@H](NC(=O)CN3CCN(CC(=O)O)CCN(CC(=O)O)CCN(CC(=O)O)CC3)C(=O)NCC(=O)NCC(=O)N[C@@H](Cc3ccc(O)cc3)C(=O)NCC(=O)N[C@H]3CSSC[C@@H]4NC(=O)CNC(=O)[C@H](C)NC(=O)[C@H](CC(C)C)NC(=O)[C@@H]5CSSC[C@@H](C(=O)NCC(N)=O)NC(=O)[C@H](Cc6ccccc6)NC(=O)CNC(=O)[C@H](CC(N)=O)NC(=O)[C@@H]6CCCN6C(=O)CNC(=O)[C@H](CSSC[C@H](NC(=O)[C@H](CO)NC(=O)[C@H]([C@@H](C)O)NC(=O)[C@@H]6CCCN6C(=O)[C@H](C)NC(=O)[C@H](Cc6c[nH]c7ccccc67)NC(=O)[C@H](CC(=O)O)NC(=O)CNC(=O)[C@H](CCCNC(=N)N)NC(=O)CNC(=O)[C@H](CCC(N)=O)NC(=O)[C@@H]6CCCN6C3=O)C(=O)N[C@@H](CO)C(=O)N[C@@H](CCC(N)=O)C(=O)N[C@@H](CC(=O)O)C(=O)N[C@@H](CO)C(=O)N[C@@H](CC(=O)O)C(=O)N5)NC(=O)[C@H](C(C)C)NC4=O)c3ccc4c(S(=O)(=O)[O-])cc(S(=O)(=O)O)cc4c3C2(C)C)C(C)(C)c2c1ccc1c(S(=O)(=O)O)cc(S(=O)(=O)O)cc21 (single isomer, unassigned) [copper-64 labelled]", "test system": "mouse, blood, tumour, liver, kidney", "setting": "dose not given, 1 h", "scale": "relative to: total including insoluble pellet", "quantity": "radioactivity in soluble extract", "result": "50 to 80%"}
{"Substance": "N=C(N)NCCC[C@@H]1NC(=O)[C@H](CCCCNC(=O)CNC(=O)CNC(=O)CNC(=O)CC[C@H](NC(=O)CCOCCOCCOCCOCCNC(=O)c2ccc(NN)nc2)C(=O)NCC(=O)NCC(=O)NCC(=O)NCCCC[C@@H]2NC(=O)[C@@H](Cc3ccccc3)NC(=O)[C@H](CC(=O)O)NC(=O)CNC(=O)[C@H](CCCNC(=N)N)NC2=O)NC(=O)[C@@H](Cc2ccccc2)NC(=O)[C@H](CC(=O)O)NC(=O)CNC1=O [technetium-99m labelled]", "assay": "γ-counting", "test system": "female athymic nude mice, U-87 MG xenograft, intestine", "setting": "intravenous, 0.5 h", "quantity": "tissue uptake", "result": "9.27 ± 1.15 %ID/g"}
{"note": "Repeated from above:"}
{"Substance": "CSCC[C@H](NC(=O)[C@H](CC(C)C)NC(=O)[C@H](Cc1c[nH]cn1)NC(=O)CNC(=O)[C@@H](NC(=O)[C@H](C)NC(=O)[C@H](Cc1c[nH]c2ccccc12)NC(=O)[C@H](CCC(N)=O)NC(=O)CCC(=O)NCCOCCOCCNC(=O)CN1CCN(CC(=O)O)CCN(CC(=O)O)CCN(CC(=O)O)CC1)C(C)C)C(N)=O", "test system": "ICR SCID mouse (PC-3 tumour), urine and bladder contents", "setting": "intravenous, 185 kBq, 1 h", "quantity": "excreted dose", "result": "80.67 ± 0.74%"}
